Results from different studies.
Parts stem from different laboratories: compare values within a part only. Values joined by “and” are separate records of one study, mostly repeats; a detail may differ.
UniProt P08908, sequence (whole entry, looked up): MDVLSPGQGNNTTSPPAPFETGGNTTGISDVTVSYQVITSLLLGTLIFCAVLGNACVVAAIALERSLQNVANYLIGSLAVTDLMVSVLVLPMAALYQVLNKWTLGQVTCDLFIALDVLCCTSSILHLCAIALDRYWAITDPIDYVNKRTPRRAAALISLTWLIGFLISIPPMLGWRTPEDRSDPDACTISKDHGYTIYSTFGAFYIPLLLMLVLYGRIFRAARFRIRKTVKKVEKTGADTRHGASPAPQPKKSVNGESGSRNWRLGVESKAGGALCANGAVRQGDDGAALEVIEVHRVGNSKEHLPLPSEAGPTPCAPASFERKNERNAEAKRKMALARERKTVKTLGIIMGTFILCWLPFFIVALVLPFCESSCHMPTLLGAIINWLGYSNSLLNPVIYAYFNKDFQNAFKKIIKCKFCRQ

Sample 1
Target: Tyrosine-protein kinase Fgr (FGR, Homo sapiens, UniProt P09769)
UniProt P09769, sequence (whole entry, looked up): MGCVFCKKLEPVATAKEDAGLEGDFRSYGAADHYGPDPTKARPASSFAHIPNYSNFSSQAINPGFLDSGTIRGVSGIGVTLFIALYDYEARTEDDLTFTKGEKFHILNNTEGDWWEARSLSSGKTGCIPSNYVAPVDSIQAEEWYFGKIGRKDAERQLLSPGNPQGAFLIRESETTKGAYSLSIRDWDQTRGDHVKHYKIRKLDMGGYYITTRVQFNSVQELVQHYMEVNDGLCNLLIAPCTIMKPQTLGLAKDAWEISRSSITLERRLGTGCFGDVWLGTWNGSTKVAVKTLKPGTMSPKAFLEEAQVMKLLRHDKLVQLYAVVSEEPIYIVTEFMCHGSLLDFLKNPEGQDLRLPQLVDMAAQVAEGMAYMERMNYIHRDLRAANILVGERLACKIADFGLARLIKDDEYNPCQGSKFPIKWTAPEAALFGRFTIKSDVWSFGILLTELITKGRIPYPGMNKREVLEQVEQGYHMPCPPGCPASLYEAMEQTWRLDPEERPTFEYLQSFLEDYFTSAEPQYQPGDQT
Read-out: enzyme activity
Mode: inhibitor
Concentration: 0.5 µM
Relative to: control
`N#Cc1cnc2cnc(NCc3cccnc3)cc2c1Nc1ccc(F)c(Cl)c1` has a remaining activity of 84.5%.
The remaining activity of `O=C1NC(=O)c2c1c1c3ccccc3[nH]c1c1[nH]c3cc(Br)ccc3c21` is reported as 88.8%.
`COc1ccc2c(c1)c(C1=C(c3c[nH]c4ccccc34)C(=O)NC1=O)cn2CCCN(C)C` has a remaining activity of 107%.
`c1ccc(-c2n[nH]c3c2oc2ccccc23)cc1` has a remaining activity of 116%.
The remaining activity of `CCCNC(=O)Nc1ccc(Oc2ncnc3cc(OC)c(OC)cc23)cc1Cl` is reported as 70.2%.
The remaining activity of `O=C1Nc2ccccc2/C1=C\c1c(Cl)[nH]c2ccccc12` is reported as 90.5%.
For `c1ccc2c(-c3ccncc3)c[nH]c2c1`, the remaining activity was 94.5%.
`O=C(c1cc2cc(O)ccc2[nH]1)c1cc2cc(O)ccc2[nH]1` has a remaining activity of 12.7%.

Sample 2
Cell line: HaCaT
Concentration: 100 µM
Time: 36 h
`CN(C/C=C/c1ccccc1)Cc1cccc2ccccc12` gave a viability of 43.9%.
For `c1cc(CN2CCCNCCNCCCNCC2)ccc1CN1CCCNCCNCCCNCC1`, the viability was 94.8%.
For `COc1cc(C=O)ccc1O`, the viability was 64.9%.
With `CCCCC[C@H](O)/C=C/[C@H]1[C@H](O)CC(=O)[C@@H]1CCCCCCC(=O)O` the viability was 113%.
The viability of `C[C@H](N)[C@H](O)c1cccc(O)c1` is reported as 74.9%.
With `C[C@@H]1O[C@@H](OC[C@H]2O[C@@H](Oc3c(-c4ccc(O)c(O)c4)oc4cc(O)cc(O)c4c3=O)[C@H](O)[C@@H](O)[C@@H]2O)[C@H](O)[C@H](O)[C@H]1O` the viability was 97.1%.
With `CC(=O)OCC(=O)[C@@]12N=C(C)O[C@@H]1C[C@H]1[C@@H]3CCC4=CC(=O)C=C[C@]4(C)[C@H]3[C@@H](O)C[C@@]12C` the viability was 92.2%.
For `Cc1ncc([N+](=O)[O-])n1CC(O)CCl` (stereo not shown), the viability was 90.3%.

Sample 3
Cell line: mouse MPNST tumor cells
Method: high-content immunofluorescence imaging
Refers to: nuclear SOX9
Concentration: 10 µM
Time: 12 h
Notes: mean of 2 replicates
Relative to: DMSO control
Reading: higher = more nuclear SOX9
Under “nuclear SOX9 intensity”, `Cc1cc(C(C)(C)C)c(O)c(C)c1CC1=NCCN1` is recorded as 105 % of DMSO.
`COc1ccc2c(c1)C(C(=O)N(Cc1ccc(N(C)C)cc1)c1ccc(C(C)C)cc1)CCC2` (stereo not shown): “nuclear SOX9 intensity” 102 % of DMSO.
`CCCc1cc(-c2nc(-c3ccc(C)cc3)cs2)ccn1`: “nuclear SOX9 intensity” 138 % of DMSO.
Under “nuclear SOX9 intensity”, `O=C(Nc1ccc(Cl)nc1)c1ccc(Cl)cc1` is recorded as 111 % of DMSO.
`Nc1ncn(C2OC(CO)C(O)C2O)c(=O)n1` (stereo not shown): “nuclear SOX9 intensity” 106 % of DMSO and 131 % of DMSO.
`CN1C(=O)N(c2cc(Cl)cc(Cl)c2)C(=O)[C@]12CN(c1ccc(C(=O)O)cn1)C[C@H]2c1ccc(C#N)cc1` — result for “nuclear SOX9 intensity”: 89.7 % of DMSO.
For `Cc1ccc(C(=O)COC(=O)c2cccc(NC(=O)c3ccc([N+](=O)[O-])cc3[N+](=O)[O-])c2)cc1`, “nuclear SOX9 intensity” read 102 % of DMSO.
`COCC1=C(C(=O)OC(C)OC(=O)OC(C)C)N2C(=O)[C@@H](NC(=O)/C(=N\OC)c3csc(N)n3)[C@H]2SC1` (stereo partly shown): “nuclear SOX9 intensity” 89.9 % of DMSO.

Further values, each from its own experiment
With `O=C(Nc1ccc(-n2nc(-c3cccnc3)cc2C(F)(F)F)cn1)c1ccc(-c2ccccc2)c(F)c1` the inhibition was -3.06% (5-hydroxytryptamine receptor 1A (HTR1A, Homo sapiens, UniProt P08908); binding, radioligand binding; 10 µM).

Some of these lines once more (sample 1):
The remaining activity of `CCCNC(=O)Nc1ccc(Oc2ncnc3cc(OC)c(OC)cc23)cc1Cl` is reported as 70.2%.
`O=C(c1cc2cc(O)ccc2[nH]1)c1cc2cc(O)ccc2[nH]1` has a remaining activity of 12.7%.
